Measured values of several laboratories.
Every numbered part comes from another study and shows a few of its results, in no order.

Series 1
Target: Interferon regulatory factor 5, full length, phosphomimetic (IRF5, Homo sapiens, UniProt Q13568-2, residues 1-514, S451D/S453D/S456D/S462D)
Method: protein-binding microarray
Form: double-stranded DNA, one strand shown
Sample: in vitro
Concentration: 940 nM top
Notes: 60-bp whole probe
Added: salmon DNA 0.4 mg/ml
Baseline: random background probes
Direction: higher = stronger binding
Endpoint: fitted relative affinity
All sequences stand within: GCCTAGCAC … GTCTTGATTCGCTTGACGCTGCTG
GACGGTTTCGACACTGGGGACGTGCTA: 7.34 z-score
TTAGGACTGGGTACCGGTTAGTGCTAG: -0.428 z-score
GACGGTCTCTTTTTCCTGACGTGCTAG: 1.03 z-score
GACGGTTTCGACTATAGGGACGTGCTA: 8.28 z-score
GACGGTTTCGGGTTTCGGGACGTGCTA: 8.86 z-score
TTAGATATCAGTCTCTATTAGTGCTAG: 0.733 z-score
TACGGTCTCCTTCTCCTGACGTGCTAG: 0.421 z-score
TTACTTCCCAATAATCTTTTCGTGCTA: 1.79 z-score
TTAGGACTGCTTCTCCGTTAGTGCTAG: -0.279 z-score
GACGGTTTCGGTCTCGGGCCGTGCTAG: 12.8 z-score
ATGTAATTCCTGCCTGAGCTCGTGCTA: 0.019 z-score
TTTGATCTCAGTTTCGATTAGTGCTAG: 8.41 z-score
TTAGGTCTCGGACTGGGTAAGTGCTAG: 1.24 z-score
TTAGGACTGCTGCTCCTTTAGTGCTAG: -0.393 z-score

Series 2
Target: RNA binding protein fox-1 homolog 2, RRM domain, GST-SBP tag (RBFOX2, Homo sapiens, UniProt O43251-10, residues 100-194)
Method: RNA Bind-n-Seq
Form: RNA
Sample: in vitro
Concentration: 365 nM
Notes: natural RNA segment, single round, ends assumed
Baseline: no-protein control
Direction: higher = stronger binding
Endpoint: RBNS enrichment (R)
All sequences stand within: GGGAGUUCUACAGUCCGACGAUC … UGGAAUUCUCGGGUGCCAA
Construct (chain): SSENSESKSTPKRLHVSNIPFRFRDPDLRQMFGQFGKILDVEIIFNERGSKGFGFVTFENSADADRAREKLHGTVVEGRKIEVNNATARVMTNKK
CUGGGACCCGAGUAGGAGCUAGGACUAGCCAGGACCCGCAGCCGCCUCGUCACCUCCAGUUGGGUGCCUCUGGGUUCCCACUGGCUCUGCCCAGGUGGGGUGGGGUGGCC: 0.201
GUAUAUGGACAGGCCUGCAUCACAGCAUCCUAGACUUCUUUGGAGACCCGUUUGAUAGUACUUUCAGUUUUUGGCAUUUGGGGUACUUUGAAAUCCAACUUGUUUUUAAA: 0.948
UAAUAUGCAGUAGUAUAGUGUGGAUCCAUUGCAAUUACUGGAAAAUUGGUUUAAAAUACUAUUUGCAGUGAGACCAUCUUUAGACUUGGAUAUUCUUGAUUCUUAGUUCA: 0.387
UCAGGGUGGCUGUGAUACAGGUUCCCCAUGUCCUUGCCGUGGGUCAUCCUUGCUGUGGGUCAUCCUUGCUGUGGAGAUCCAUUCCCCACCUUUCCUGUGGCCCAACCUUU: 0.23
UUUGUCUUCCGGCUGCUCAGGGCUCUCACGCCCAGACCCUGCUUUAGAGUCCUGGAGUGACCACAGCCCCUGCCCCCUGUCCCUGAGAGGUACAAGAGCCUGUUUACCUC: 0.328
AUUUCUAUGUGUAUGCAAGUACAAGUAUAUAAUAUGUCACCUGGCACAUUCAUUUUCUCAGUUGAAGAAGAGAAAAUUUGAAAAUGUCCUUAUGCUUUUAGAGUUGCAAC: 0.54
GUGGCUGUCCAUCCCUGGAUAGCUAUUUGCACGAAUCAUGGACAUAAAUCCAAGUUGAAGAAGAUCACAUUCUGACUCAUGUUCAUUUAUGCGCUAAUGUUCCCCUGUCA: 0.432
GAUGGACCUUUCCCUCCAUGUAGCUUUUCCUCAGAGUCGAUGAGAAGUGAAUGUUGUCUUUGGUCACAAUGCCUUUAAGUGUAGUUGUAGCUCAGAACUUUUUUUUUAGU: 0.534
GCUCCUGAAGAAGCUGUCUUCCCAUUUUCCAUGCGCUGUGCUUAUGUGUGGUGGACUGCAGAGCUGCUUCCACUUACAGGAGAGCUGAUAAUUUGUUAGCUGGAACCUAU: 0.341
GCAAUGAGGAGAUACACGAUUCUGAAAGGUCAUCUGAAGCCUGAAACCCCUAGAGCAACCCCCUCUCCUAGCAUUGCCAAAUGCUGGUCUUGGUGAGGAUGGGUUUCAAA: 0.202
CCUUGAAAUAAUAUUUGACUAUAUAGGUACAUAUCUGUAAAAGAUGACCACCUUAACUAAAUCAGAUUUUACAUUUAUAAAUUUUAUAUUUAAUUAGUCAAAUCAAUUUU: 0.846
AUUUUCUUUGGCAUCUCUUUGCCCUUUCCUCUGGAGUCUUUCUUGAGUACUGAUUUCAUGUUGAAUUGUAUCCCACACAUCAUGGUCUGCAGCUUCUUUUUCACAUGUAG: 0.386

Series 3
Target: Centromere-binding protein 1, full length, His-tagged (CBF1, Saccharomyces cerevisiae, UniProt P17106, residues 1-351)
Chain of UniProt P17106 (whole entry, looked up): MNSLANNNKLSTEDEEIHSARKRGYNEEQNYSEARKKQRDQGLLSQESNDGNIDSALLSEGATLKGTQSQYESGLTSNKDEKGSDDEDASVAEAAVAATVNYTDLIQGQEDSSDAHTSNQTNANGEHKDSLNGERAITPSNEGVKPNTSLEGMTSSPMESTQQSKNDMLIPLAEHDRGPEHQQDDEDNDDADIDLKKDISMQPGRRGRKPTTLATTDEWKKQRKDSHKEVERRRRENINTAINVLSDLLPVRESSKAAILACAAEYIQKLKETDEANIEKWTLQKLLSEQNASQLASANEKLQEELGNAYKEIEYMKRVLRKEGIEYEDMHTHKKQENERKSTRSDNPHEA
Method: competition protein-binding microarray
Form: double-stranded DNA, one strand shown
Sample: in vitro
Concentration: 2 µM
Notes: whole 60-bp probe, lowest competitor level
Added: Pho4 competitor, 0.05 µM
Direction: higher = stronger binding
Endpoint: fluorescence intensity
All sequences stand within: … GTCTTGATTCGCTTGACGCTGCTG
CTTCTGTAAATTTTTCACGTGAGATGACGCGCCCCG: 832 a.u.
AAAGCGGTAATTTGTTCCGTGGGTGCAGATATCTAT: 71.8 a.u.
TGCGCAACAACTTTTCACGTGTAGTTATGTCTAGAA: 662 a.u.
GACGCAGCGGGCTTGCTTGTGGACTGCTTGGTGGGG: 71.6 a.u.
GACTTATCGTCTGAAGTCGTGGGACAAATGGATGCC: 78.8 a.u.
TAAGTGAGGTTCCATCACGGGGCCACCGTTCTCATT: 213 a.u.
TAGTTTGTCGCCCGTCACGTGCGATAATGCAAAATA: 5280 a.u.
GATCAGTTTTCCACATCCGTGATGGGGCGCAAATTA: 212 a.u.
AAAAGTTTCCCTTCTCACGTGTCCATAAAGCATCAA: 2400 a.u.
ATATTAAAAAACCATCACGTGGTGAAAAAAAAAATT: 7640 a.u.
GTGAGCGAAGAGGTTAATGATATCTTCGATTATTTG: 92.4 a.u.
CTCTGAGTTTTTTGACACATGCCAGAAGAAACGTTA: 133 a.u.
GACAAAAAAGCAGGGCACATGTCAAACTCTTGGAAA: 192 a.u.
CTTTCCCGATCTTGTTAAGTGGGTGTAGCACATTTG: 78.9 a.u.

Other studies, line by line
PhoQ, residues 284 288 289 292 302 303 TNSAEL — fold induction (PhoP, residues 12 14 15 18 19 TPLRH (Escherichia coli, UniProt P23836); Sort-seq, measured: YFP reporter; E. coli; PhoQ-PhoP variant library, added: 10 µM Mg2+; baseline: high Mg2+ state, higher = stronger signaling): 0.697

For quick reference, copied from above (series 3):
AAAAGTTTCCCTTCTCACGTGTCCATAAAGCATCAA: 2400 a.u.
ATATTAAAAAACCATCACGTGGTGAAAAAAAAAATT: 7640 a.u.
GTGAGCGAAGAGGTTAATGATATCTTCGATTATTTG: 92.4 a.u.
CTCTGAGTTTTTTGACACATGCCAGAAGAAACGTTA: 133 a.u.
GACAAAAAAGCAGGGCACATGTCAAACTCTTGGAAA: 192 a.u.
CTTTCCCGATCTTGTTAAGTGGGTGTAGCACATTTG: 78.9 a.u.
